Experimental data of several laboratories.
Several values in a cell are separate wells, animals, samples, runs or records. ± marks the error that the study gave.

C[C@@H]1N=C(c2ccccc2F)c2cc(Br)ccc2-n2cnc(C(=O)O)c21
relaxation time (guinea pig tracheal rings; together with: substance P contraction): ≤ 30 min

N.N.[Cl][Pt][Cl]
tumour volume (KSN/Slc nude mice, SAS xenograft; dose not given, day 0): 71.7 mm3 and 55.4 mm3 and 75.8 mm3 and 44 mm3 and 74.1 mm3 and 97.5 mm3 and 81.1 mm3 and 41.3 mm3

C[C@H](NC(=O)c1c(C(F)F)nn(C)c1Oc1cccc(C(F)(F)F)c1)c1ccc(C(=O)O)cc1
deaths (human, advanced tumours; 750 mg): 0%

CN1CCN(S(=O)(=O)c2cc([N+](=O)[O-])ccc2N(CCOS(C)(=O)=O)CCOS(C)(=O)=O)CC1
event-free survival (NSG mice, sample BB PDX; intraperitoneal, 25 mg/kg weekly x3): 31.2 days

CS(=O)(=O)c1ccc(-c2nnc(/C=C/c3nnc(-c4ccc(C#N)cc4)o3)n2-c2ccccc2Cl)nc1
normalized enrichment score (RNA-seq GSEA, item: FALLER_STEM_MOUSE; organoids, small intestinal, Apc Q1405X, mouse; dose not given, knockout organoids; reference: DMSO, direction not given): -2.08

c1cncc([C@@H]2CCCN2)c1
response rate (drug discrimination acquisition; drug-naive rat; 5 mg/kg, pretreatment; reference: saline): decreased

C[C@]12CC[C@@H](O)C[C@@H]1CC[C@@H]1[C@@H]2CC[C@]2(C)[C@@H]([N+](=O)[O-])CC[C@@H]12
ED50 (protection against pentylenetetrazol seizures; male NIH Swiss mice; intraperitoneal, 15 min before test, together with: pentylenetetrazol 80 mg/kg s.c.): 12.9 mg/kg

C[C@H]1O[C@@H](O[C@H]2CC[C@@]3(C)[C@@H](CC[C@]4(C)[C@@H]3C=C[C@]35OC[C@@]6(CCC(C)(C)C[C@H]63)[C@@H](O)C[C@]54C)[C@]2(C)CO)[C@H](O)[C@@H](O[C@@H]2O[C@H](CO)[C@@H](O)[C@H](O)[C@H]2O)[C@H]1O
AST activity (Mus musculus, chronic-plus-binge ethanol-fed, AAV8-TBG-Null vector, plasma; oral, high dose, 5 h): 47.2 U/L and 44.3 U/L and 33.5 U/L and 35.5 U/L and 53 U/L and 59.7 U/L

O=C(O)/C=C/C(=O)O.Oc1cccc2[nH]cc(CCNCc3ccccc3)c12
distance travelled (C57BL/6J mice; subcutaneous, 1 mg/kg, 30 min): 2480 ± 237 cm

CC(=O)c1c(C)c2cnc(Nc3ccc(C4CCN(CCS(C)(=O)=O)CC4)cn3)nc2n(C2CCCC2)c1=O
objective response rate (RECIST v1.1; HR+/HER2- advanced breast cancer patients; 100 mg twice daily, phase Ib monotherapy arm): 6.7%

O=C(O)CNC(=O)c1cc2ccccc2n1Cc1ccc(Br)c2ccccc12
serum uric acid (mouse, acute hyperuricaemia model, serum; oral, 2 mg/kg, individual animal data): 850 µM and 706 µM and 602 µM

CN1CCN(C(C(=O)NCCc2ccc(F)cc2)c2ccc(C#N)cc2)CC1 (stereo not drawn)
GLAST expression (rat, prefrontal cortex; ip, 100 mg/kg twice daily, 7 days, together with: clavulanic acid 10 mg/kg; reference: vehicle): no effect

Cc1cn(-c2cc(NC(=O)c3ccc(C)c(Nc4nccc(-c5cccnc5)n4)c3)cc(C(F)(F)F)c2)cn1
NPI caregiver distress score (Homo sapiens; 300 mg, 12 months; direction not given): 2.9 ± 3.3

Cc1cccc(C)c1NC(=O)C1CCCCN1 (stereo not drawn)
sensory block duration (Sprague-Dawley rat, male, sciatic nerve; 22.5 mM): 34.5 ± 14.9 min

CCCCC/C=C\C/C=C\C/C=C\Cc1ccccc1CCCC(=O)N[C@H](C)CO
duration of effect (mechanical hypersensitivity, electronic von Frey; mouse, CFA inflammatory pain; i.p., 5 mg/kg): ≥ 2 h

CC[C@H](C)[C@@H]1NC(=O)[C@@H]2CCCN2C(=O)[C@H](CC(C)C)NC(=O)[C@H](CC(C)C)NC(=O)CNC(=O)[C@@H](NC(=O)[C@@H](NC(=O)[C@H](CC(=O)O)NC(=O)CNC(=O)[C@@H](NC(=O)[C@H](C)NC(=O)CNC(=O)[C@H](CCCCN)NC(=O)[C@H](CC(C)C)NC(=O)[C@H](CC(C)C)NC(=O)[C@H](CCCCN)NC(=O)CNC(=O)[C@@H](NC(=O)[C@@H](N)CC(C)C)C(C)C)C(C)C)C(C)C)CSSC[C@@H](C(=O)O)NC1=O
log2 fold change (RNA-seq, item: Frat1; mouse, traumatic brain injury model, frontal cortex and hippocampus; dose not given; reference: TBI alone): -0.851

COc1ccc([C@@H](O)c2cc(-c3ncnc4cc(N5CCOCC5)ccc34)c(F)cc2Cl)nn1
median survival (mouse, orthotopic M12-eGFP tumour; 125 mg/kg, 504 h, together with: radiotherapy): 43 days

CCCCC1(CCCC)CN(c2ccccc2)c2cc(SC)c(OCC(=O)N[C@@H](C(=O)NCC(=O)O)c3ccccc3)cc2S(=O)(=O)C1
serum HDL-C (item: HDL cholesterol; human, serum; 2.5 mg once daily, day 2): 57.2 mg/dL

c1ccc2c(c1)Nc1ccccc1S2
tumour volume (CT26 tumour-bearing mice; intraperitoneal, 100 mg/kg equivalents daily, day 8): 1000 mm³

Cc1cc(-c2nc(C(=O)Nc3cc4oc(N5CCOCC5)nc4nc3N3CC[C@@H](O)C3)co2)ccn1
median survival increase (A20 PCNSL xenograft, mouse, intracranial tumour; oral, 100 mg/kg, two weeks; reference: vehicle): 61%

CCCCCN1C[C@H](O)[C@@H](O)[C@H](O)[C@@H]1CO
median survival time (Hexb-/- mouse, mixed sex; 300 mg/kg/day): 159 days
